{"data": "Experimental data gathered from unrelated publications", "note": "Every numbered part comes from another study and shows a few of its results, in no order.", "chain of UniProt P41240 (whole entry, looked up)": "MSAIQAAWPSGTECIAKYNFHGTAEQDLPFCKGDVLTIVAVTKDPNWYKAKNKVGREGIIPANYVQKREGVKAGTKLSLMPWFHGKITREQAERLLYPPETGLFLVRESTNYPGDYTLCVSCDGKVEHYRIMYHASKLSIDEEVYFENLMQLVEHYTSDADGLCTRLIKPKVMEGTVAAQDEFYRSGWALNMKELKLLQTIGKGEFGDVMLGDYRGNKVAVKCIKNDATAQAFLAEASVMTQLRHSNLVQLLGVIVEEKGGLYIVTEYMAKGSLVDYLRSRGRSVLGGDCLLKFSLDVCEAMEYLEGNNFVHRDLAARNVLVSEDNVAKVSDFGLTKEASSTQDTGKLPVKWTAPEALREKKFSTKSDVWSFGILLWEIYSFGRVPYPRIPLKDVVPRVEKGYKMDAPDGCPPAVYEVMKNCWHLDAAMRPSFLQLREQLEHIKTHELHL", "chain of UniProt Q9BVS4 (whole entry, looked up)": "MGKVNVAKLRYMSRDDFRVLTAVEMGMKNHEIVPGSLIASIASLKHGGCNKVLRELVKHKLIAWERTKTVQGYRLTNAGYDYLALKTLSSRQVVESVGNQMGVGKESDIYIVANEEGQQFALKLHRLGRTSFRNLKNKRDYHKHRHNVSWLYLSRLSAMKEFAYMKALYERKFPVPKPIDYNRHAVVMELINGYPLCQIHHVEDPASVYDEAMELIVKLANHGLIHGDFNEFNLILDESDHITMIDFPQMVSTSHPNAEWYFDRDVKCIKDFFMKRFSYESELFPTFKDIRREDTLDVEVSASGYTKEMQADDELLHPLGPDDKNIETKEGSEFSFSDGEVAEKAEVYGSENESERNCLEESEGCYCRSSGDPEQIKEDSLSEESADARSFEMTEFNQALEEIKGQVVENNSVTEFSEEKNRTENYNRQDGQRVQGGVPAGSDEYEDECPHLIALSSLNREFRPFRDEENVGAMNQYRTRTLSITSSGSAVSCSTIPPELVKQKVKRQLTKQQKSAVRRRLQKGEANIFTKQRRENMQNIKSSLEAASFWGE", "chain of UniProt Q15418 (whole entry, looked up)": "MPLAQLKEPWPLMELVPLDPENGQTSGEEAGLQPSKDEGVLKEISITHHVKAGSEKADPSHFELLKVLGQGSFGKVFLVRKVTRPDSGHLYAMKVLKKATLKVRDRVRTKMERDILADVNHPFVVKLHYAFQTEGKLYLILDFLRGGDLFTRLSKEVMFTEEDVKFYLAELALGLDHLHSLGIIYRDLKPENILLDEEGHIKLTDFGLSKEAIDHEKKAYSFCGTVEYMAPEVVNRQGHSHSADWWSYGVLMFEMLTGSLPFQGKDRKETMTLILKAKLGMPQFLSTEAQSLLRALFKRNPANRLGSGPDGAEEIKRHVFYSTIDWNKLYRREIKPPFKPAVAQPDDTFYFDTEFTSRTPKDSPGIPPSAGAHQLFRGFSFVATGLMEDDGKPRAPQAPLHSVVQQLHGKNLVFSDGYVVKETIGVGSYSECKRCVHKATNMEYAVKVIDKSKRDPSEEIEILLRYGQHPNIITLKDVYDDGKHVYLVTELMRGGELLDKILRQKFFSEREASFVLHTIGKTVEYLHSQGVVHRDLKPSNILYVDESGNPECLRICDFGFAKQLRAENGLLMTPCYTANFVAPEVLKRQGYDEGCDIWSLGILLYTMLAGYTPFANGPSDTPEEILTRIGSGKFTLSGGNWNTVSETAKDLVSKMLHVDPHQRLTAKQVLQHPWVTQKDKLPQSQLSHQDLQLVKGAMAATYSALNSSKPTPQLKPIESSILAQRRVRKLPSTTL"}
{"data": "Series 1", "target": "Cyclin-dependent kinase 5, with p25 (CDK5, Homo sapiens, UniProt Q00535)", "observed": "enzyme activity", "action": "inhibitor", "tested at": "0.5 µM", "relative to": "control", "chain of UniProt Q00535 (whole entry, looked up)": "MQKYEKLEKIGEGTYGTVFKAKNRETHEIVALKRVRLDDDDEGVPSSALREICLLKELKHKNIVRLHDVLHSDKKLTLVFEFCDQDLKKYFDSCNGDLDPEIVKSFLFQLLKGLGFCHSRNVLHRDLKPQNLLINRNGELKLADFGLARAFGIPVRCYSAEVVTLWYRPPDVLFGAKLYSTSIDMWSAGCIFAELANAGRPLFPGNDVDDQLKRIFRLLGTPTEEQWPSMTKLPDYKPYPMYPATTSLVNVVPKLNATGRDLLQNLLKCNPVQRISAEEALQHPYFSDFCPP"}
{"SMILES": "Nc1ncnc2n[nH]c(Nc3ccc(F)cc3)c12", "remaining activity [%]": 82.5}
{"SMILES": "Nc1ccc2ncnc(NCCc3ccc(Oc4ccccc4)cc3)c2c1", "remaining activity [%]": 90.6}
{"SMILES": "COc1ccc(C(=O)Nc2sc3c(c2C(N)=O)CCCC3)cc1OC", "remaining activity [%]": 94.2}
{"SMILES": "Cn1c2ccccc2c2c3c(c4c5ccccc5n(CCC#N)c4c21)CNC3=O", "remaining activity [%]": 21.3}
{"data": "Series 2", "target": "TAR DNA-binding protein 43, full length, His tag (TARDBP, Homo sapiens, UniProt Q13148, residues 1-414)", "technique": "RNA Bind-n-Seq", "form": "RNA", "medium": "in vitro", "tested at": "20 nM", "notes": "6-mer, flanks averaged, single round", "together with": "150 mM KCl", "relative to": "input library", "reading": "higher = stronger binding"}
{"Strand": "UCUGGA", "6-mer enrichment (R)": 0.776}
{"Strand": "GCGUAA", "6-mer enrichment (R)": 0.934}
{"Strand": "ACAUGA", "6-mer enrichment (R)": 0.673}
{"Strand": "UAGACG", "6-mer enrichment (R)": 0.907}
{"Strand": "GCUUAG", "6-mer enrichment (R)": 0.838}
{"Strand": "GAGCCG", "6-mer enrichment (R)": 1.42}
{"Strand": "UGGUCU", "6-mer enrichment (R)": 0.705}
{"Strand": "GCACCU", "6-mer enrichment (R)": 0.714}
{"data": "Series 3", "Structure (SMILES)": "CSc1cccnc1N1CCN(Cc2nc3ccccc3[nH]2)CC1", "observed": "cell-free assay", "technique": "competition with immobilised ligand", "tested at": "1 µM"}
{"target": "RIOK2 (Homo sapiens, UniProt Q9BVS4)", "remaining binding": "100%"}
{"target": "Ribosomal protein S6 kinase alpha-1, N-terminal kinase domain (RPS6KA1, Homo sapiens, UniProt Q15418)", "remaining binding": "100%"}
{"target": "CSK (Homo sapiens, UniProt P41240)", "remaining binding": "100%"}
{"target": "Tyrosine-protein kinase ABL1, phosphorylated (ABL1, Homo sapiens, UniProt P00519, T315I)", "remaining binding": "93%"}
{"data": "Series 4", "target": "Centromere-binding protein 1, full length, His-tagged (CBF1, Saccharomyces cerevisiae, UniProt P17106, residues 1-351)", "technique": "competition protein-binding microarray", "form": "double-stranded DNA, one strand shown", "medium": "in vitro", "tested at": "2 µM", "notes": "whole 60-bp probe, lowest competitor level", "together with": "Pho4 competitor, 0.05 µM", "reading": "higher = stronger binding", "all sequences stand within": "… GTCTTGATTCGCTTGACGCTGCTG", "chain of UniProt P17106 (whole entry, looked up)": "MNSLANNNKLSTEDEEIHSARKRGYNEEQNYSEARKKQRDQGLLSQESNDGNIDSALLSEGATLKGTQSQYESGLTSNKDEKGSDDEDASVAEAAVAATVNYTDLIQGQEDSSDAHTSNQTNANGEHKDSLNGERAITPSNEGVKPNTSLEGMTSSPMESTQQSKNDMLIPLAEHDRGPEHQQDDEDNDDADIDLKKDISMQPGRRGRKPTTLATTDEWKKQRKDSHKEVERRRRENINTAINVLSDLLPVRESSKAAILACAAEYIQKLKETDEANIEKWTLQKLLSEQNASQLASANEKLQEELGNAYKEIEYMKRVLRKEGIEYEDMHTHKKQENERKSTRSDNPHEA"}
{"Strand": "AAATTACTAAGTTGATAAGTGGGTGACGCCGTATGA", "fluorescence intensity": "78.9 a.u."}
{"Strand": "CATGGCCTCAATGGCCGCGTGTCCAGAGAGTGGACT", "fluorescence intensity": "60.8 a.u."}
{"Strand": "CAATGCTTTCCCGGCCACGTCGACATGGAACATCTT", "fluorescence intensity": "67.9 a.u."}
{"Strand": "CTAACGAAGGTTTTTCACGTGGAATACAAGCCAAGT", "fluorescence intensity": "639 a.u."}
{"Strand": "GCAAAACGCCCCGCCCACGTGGAGTTGACAGTTAAG", "fluorescence intensity": "427 a.u."}
{"Strand": "AAAGGACCATTTAGGTACGTGGGACCGCAAAGGTTC", "fluorescence intensity": "56.3 a.u."}
{"Strand": "GTTAAGTTATTATGACGCATGCAGATAGAAGGATCA", "fluorescence intensity": "90 a.u."}
{"Strand": "CTAACGAAGGTTTGTCAAGTGGGTGACAAGCCAAGT", "fluorescence intensity": "70.5 a.u."}
